Published values collected from several papers.
A part holds a random share of what one study measured. Changes are numbered by the printed parent chain.

Block 1
Target: TAR DNA-binding protein 43, full length, His tag (TARDBP, Homo sapiens, UniProt Q13148, residues 1-414)
Method: RNA Bind-n-Seq
Form: RNA
Matrix: in vitro
Tested at: 20 nM
Notes: 6-mer, flanks averaged, single round
Added: 150 mM KCl
Reference: input library
Reading: higher = stronger binding
| Sequence | 6-mer enrichment (R) |
| --- | --- |
| CCUUCU | 0.586 |
| CGUCUU | 0.585 |
| CAGAAC | 0.704 |
| UGCUAC | 0.635 |
| GGAGGC | 3.61 |
| AAUUCU | 0.592 |
| GCACGG | 1.95 |
| ACUGUA | 0.713 |

Block 2
Target: CRIPT, C-terminal peptide
Method: DHFR complementation, deep sequencing
Matrix: yeast
Notes: single substitutions, model-inferred values
Reference: wild type
Reading: higher = weaker binding
Starting sequence: ERBIN, PDZ domain 1 (human); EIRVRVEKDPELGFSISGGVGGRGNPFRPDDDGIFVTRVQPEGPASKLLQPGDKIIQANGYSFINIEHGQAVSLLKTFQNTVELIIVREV; partner TKNYKQTSV
| Change | binding free energy change [kcal/mol] |
| --- | --- |
| I66S | 0.292 |
| G22I | 0.305 |
| V36M | 0.522 |
| H68C | 1.55 |
| G33P | 0.854 |
| H68W | 1.41 |
| L84M | 0.0403 |
| V90P | 0.129 |

Block 3
Target: Calcium/calmodulin-dependent protein kinase type 1G (CAMK1G, Homo sapiens, UniProt Q96NX5)
Chain of UniProt Q96NX5 (whole entry, looked up): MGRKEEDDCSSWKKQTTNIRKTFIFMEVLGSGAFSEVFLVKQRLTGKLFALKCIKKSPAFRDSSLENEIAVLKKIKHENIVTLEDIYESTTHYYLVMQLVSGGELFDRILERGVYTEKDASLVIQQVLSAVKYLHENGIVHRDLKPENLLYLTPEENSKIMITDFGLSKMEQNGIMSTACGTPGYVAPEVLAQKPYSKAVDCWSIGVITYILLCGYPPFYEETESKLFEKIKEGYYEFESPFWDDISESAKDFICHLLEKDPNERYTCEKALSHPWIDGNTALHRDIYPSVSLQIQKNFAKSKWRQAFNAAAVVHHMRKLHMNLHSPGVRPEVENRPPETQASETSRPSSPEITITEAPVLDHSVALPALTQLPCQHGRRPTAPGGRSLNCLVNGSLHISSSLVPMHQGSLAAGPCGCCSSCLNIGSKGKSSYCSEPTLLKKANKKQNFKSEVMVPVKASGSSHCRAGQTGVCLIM
Observed: enzyme activity
Mode: inhibitor
Tested at: 0.5 µM
Reference: control
| Structure (SMILES) | remaining activity [%] |
| --- | --- |
| COc1ccc(OC)c2c(=S)c3ccccc3[nH]c12 | 99.5 |
| Cc1nc(-c2ccccc2)c(-c2ccncc2)o1 | 92.8 |
| CCOC(=O)c1c(C)[nH]c(/C=C2\C(=O)Nc3ccccc32)c1C | 98.2 |
| O=S(=O)(c1cccc2cnccc12)N1CCCNCC1 | 101 |
| Cn1sc(=O)n(Cc2ccccc2)c1=O | 117 |
| CNC(=O)c1cc(Oc2ccc(NC(=O)Nc3ccc(Cl)c(C(F)(F)F)c3)cc2)ccn1 | 107 |
| COc1cc2ncnc(Nc3ccc(Oc4ccccc4)cc3)c2cc1OC | 101 |
| O=C1NC(=O)C(c2cn(CCCO)c3ncccc23)=C1c1cnccn1 | 101 |
| NCCNc1ncc(C(N)=O)c(Nc2cccc(C(F)(F)F)c2)n1 | 74 |
| Nc1ncnc2n[nH]c(Nc3ccc(F)cc3)c12 | 97.2 |
| Nc1[nH]nc2nc3ccccc3nc12 | 97.9 |
| COc1ccc(CNC(=O)Nc2ncc([N+](=O)[O-])s2)cc1 | 99.6 |
| N#CC(C#N)=C(N)/C(C#N)=C/c1ccc(O)cc1 | 104 |
| COc1ccc(C(=O)Nc2sc3c(c2C(N)=O)CCCC3)cc1OC | 99.4 |

Block 4
Target: D(1A) dopamine receptor (DRD1, Homo sapiens, UniProt P21728)
Chain of UniProt P21728 (whole entry, looked up): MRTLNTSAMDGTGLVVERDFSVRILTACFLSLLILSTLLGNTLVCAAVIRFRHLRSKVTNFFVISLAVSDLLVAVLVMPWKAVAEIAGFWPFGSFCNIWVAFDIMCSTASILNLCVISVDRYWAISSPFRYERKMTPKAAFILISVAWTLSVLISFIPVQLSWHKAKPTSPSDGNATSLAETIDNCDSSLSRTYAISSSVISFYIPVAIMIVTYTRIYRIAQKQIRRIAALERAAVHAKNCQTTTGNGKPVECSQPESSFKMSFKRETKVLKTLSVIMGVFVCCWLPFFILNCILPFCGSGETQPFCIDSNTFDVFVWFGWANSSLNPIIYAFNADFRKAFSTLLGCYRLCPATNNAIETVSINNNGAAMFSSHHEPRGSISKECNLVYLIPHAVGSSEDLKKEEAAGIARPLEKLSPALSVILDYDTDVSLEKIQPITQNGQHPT
Observed: binding
Method: radioligand binding
Tested at: 10 µM
| SMILES | inhibition [%] |
| --- | --- |
| CN1CCN(C(=O)C(C)(C)c2ccc(C(=O)Nc3cn4cc(-c5ccncc5)ccc4n3)cc2)CC1 | 4.41 |
| CCOCCn1cc(C(=O)Nc2ccc(-n3nc(-c4cccnc4)cc3C(F)(F)F)cn2)ccc1=O | -7.31 |
| Cc1nc(C2CCN(C(=O)c3ccc(OC(F)(F)F)cc3N)CC2)c2ncc(N3CCN(C)CC3)cc2n1 | 2.66 |
| Cc1c(NC(=O)c2cc(C(N)=O)nc3cc(F)ccc23)c(C(F)(F)F)nn1Cc1ccc(C(C)(C)C)cc1 | 3.41 |
| CN([C@@H]1CCc2c(CC(=O)O)c3cc(S(C)(=O)=O)ccc3n2C1)S(=O)(=O)c1ccc(F)cc1 | -2.96 |
| CC(C)(O)c1cncc(-c2nc3ccc(F)cc3n2C2CC2)c1 | 0.87 |
| COc1nc2ccc([C@@](O)(c3ccccc3)C3CCN(C(C)=O)CC3)cc2c(Cl)c1Cc1ccc(-n2cccn2)cc1 | 19.9 |
| O=C([C@H]1C[C@H](O)CN1c1ccc(Cl)cc1)N1CC2COCC(C1)N2Cc1ccc(Cl)cc1 | -16.5 |
| CC1=C(C#N)[C@@H](c2ccc3[nH]nc(C)c3c2)C(C#N)=C(c2ccc(Cl)cc2)N1 | 6.7 |
| CNC(=O)Nc1ccc2c(c1)[C@]1(CC2)OC(=O)N(CC(=O)N(Cc2ccc(F)cc2)[C@@H](C)C(F)(F)F)C1=O | 0.29 |
| CS(=O)(=O)NCC[C@H](NC(=O)c1cncc2c1cnn2-c1ccc(F)cc1)c1ccnc(S(C)(=O)=O)c1 | -18.2 |
| CN(C)C(=O)Cn1cc(-c2nc([C@@](C)(c3ccc(-c4cnc(N)nc4)cc3)C3CC3)no2)cn1 | 4.55 |
| COc1cccc(CNC(=O)c2nc3scc(COCc4ccc(C(=O)O)cc4)c3c(=O)[nH]2)c1 | -6.24 |
| C[C@@H]1CN(c2cc(-c3nn(C)c4ccc(OC5(C)CC5)cc34)ncn2)C[C@H](C)O1 | -26.6 |
| CC(=O)c1c(NS(C)(=O)=O)c2cc(-c3ccc(Cl)cc3)c(-c3ccc(Cl)cc3Cl)nc2n(C)c1=O | 14.2 |
| CCCOc1ccc([C@H]2[C@H](C(=O)O)[C@@H](c3ccc4c(c3)OCO4)CN2CC(=O)Nc2c(CC)cccc2CC)cc1 | 17.3 |
| Cc1nccc(COC(=O)N2C[C@@H]3[C@@H](CNC(=O)c4ccc5[nH]nnc5c4)[C@@H]3C2)n1 | -9.63 |
| CC(=O)Nc1c(F)cc(C(=O)N[C@H]2CC[C@H](O)CC2)cc1O[C@@H](C)c1ccccc1 | 4.11 |
| COc1cc(-c2cn(C3CCc4ccccc4N(CC(F)(F)F)C3=O)nn2)ccc1-n1ccc(C)n1 (stereo not shown) | 3.62 |
| O=C1CCc2cc(Nc3cc(OC4CCOCC4)c([N+](=O)[O-])cc3Cl)ccc2N1 | 7.4 |
| CC(=O)N1CCC(c2ccc(C(=O)NC(=N)N)cc2C(F)(F)F)CC1 | -10.2 |
| C[C@@]1(Cc2ccc(C#N)cc2)C(=O)N(c2cc(Cl)cc(Cl)c2)c2ncc(C(=O)NC3(c4nc(C5CCC5)no4)CC3)n21 | 18.6 |
